Measured values gathered from unrelated publications.
Protocols differ between the studies behind these lines. “And” joins repeats or separate records; there may be more than shown. ± marks the error that the study gave.
TOP2A: DNA topoisomerase 2-alpha (TOP2A, Homo sapiens, UniProt P11388)
ALB: Albumin (ALB, Homo sapiens, UniProt P02768)
SNF1: Carbon catabolite-derepressing protein kinase (SNF1, Candida albicans, UniProt P52497)
SNRK: SNF-related serine/threonine-protein kinase (SNRK, Homo sapiens, UniProt Q9NRH2)
KRAS G12D GDP-bound: GTPase KRas, GDP-bound (KRAS, Homo sapiens, UniProt P01116, G12D)
SLC6A6 Y138A: Sodium- and chloride-dependent taurine transporter (SLC6A6, Homo sapiens, UniProt P31641, Y138A)
uncharacterized protein: uncharacterized protein (Spodoptera exigua, UniProt F1CEY0)
PTPN1: Tyrosine-protein phosphatase non-receptor type 1 (PTPN1, Homo sapiens, UniProt P18031)

Compound	target	test	test system	conditions	how to read	endpoint	result
Nc1ncnc2c1ncn2[C@@H]1O[C@H](COP(=O)(O)CP(=O)(O)OP(=O)(O)O)[C@@H](O)[C@H]1O	P2X purinoceptor 1 (P2RX1, Homo sapiens, UniProt P51575)	saturation binding	HEK293	1 nM	–	specific binding	368 CCPM and 360 CCPM and 151 CCPM and 233 CCPM and 293 CCPM
O=c1nc(SCc2cc(F)cc(C(F)(F)F)c2)nc(SCc2ccc3nc(OCCN4CCOCC4)ccc3c2)[nH]1	TOP2A	decatenation	–	125 µM, replicate 1	–	decatenated DNA	0%
CC1(F)CN(C(=O)Cn2c(=O)c(C(=O)NCc3ccc(Cl)cc3)cc3nc(N4CCN(CC(=O)O)C4=O)cnc32)C1	DNA polymerase catalytic subunit (Human cytomegalovirus, UniProt P08546)	enzyme activity, inhibitor	–	–	–	Hill slope	0.91
COc1ccc(-c2cc(OCC(=O)N(C)Cc3cccnc3C)nc(-n3nc(C)cc3C)n2)cc1	LNPEP (Homo sapiens, UniProt Q9UIQ6)	peptide trimming, inhibitor, HPLC	–	up to 50 µM, 1 h, 37 °C, added: 10 µM peptide, 60 nM IRAP	–	trimming of SIINFEKL precursors	no effect
C1CCCC1.C1CCCC1.[Cl][W][Cl]	ALB	binding, van't Hoff fluorescence quenching	–	concentration not given	–	enthalpy change	1.42 kcal/mol
c1ccc(-c2n[nH]cc2-c2ccnc3ccccc23)nc1	SNF1	kinase binding, competitor, MIB/MS competition, measured: SNF1	Candida albicans cell lysate	1 µM	reference: DMSO	log2 fold change	1.12
CN(C(=O)n1cnc(-c2ccc[n+]([O-])c2)c1)C1CCCCC1	FAAH (Homo sapiens, UniProt O00519)	enzyme activity, inhibitor	COS cells expressing human FAAH	1 h	reference: whole cells over membrane preparation	potency ratio	4 to 6
C=CC(=O)N1CCC(COCC(=O)N2CCN(c3nc(-c4cnc(N)nc4C(F)F)nc(N4CCOC[C@@H]4C)n3)CC2)CC1	SNRK	KINOMEscan	–	1 µM	–	remaining binding	87%
OC[C@H]1O[C@@H](Oc2cc3c(O)cc(O)cc3[o+]c2-c2ccc(O)cc2)[C@H](O)[C@@H](O)[C@@H]1O	ALB	binding, fluorescence quenching	–	40 °C	–	Gibbs free energy	-5.85 kcal/mol
CC[C@H](C)[C@@H]1NC(=O)[C@H](Cc2ccc(-c3ccccc3)cc2)NC(=O)[C@H](CC(C)C)NC(=O)[C@@H]2CCCN2C(=O)[C@@H](NC(=O)[C@H](CCCNC(=N)N)NC(=O)[C@H](CCCNC(=N)N)NC(C)=O)CSSC[C@@H](C(=O)N[C@@H](CCCNC(=N)N)C(=O)N[C@@H](CCCNC(=N)N)C(N)=O)NC(=O)[C@H](C(C)C)NC(=O)[C@@H]2CCCN2C(=O)[C@H](CC(=O)O)NC(=O)[C@H](Cc2ccc(O)cc2)NC(=O)[C@H](CO)NC1=O	KRAS G12D GDP-bound	affinity selection mass spectrometry	–	mixture library 3, added: protein titration up to 2.5 µM	lower is stronger binding	lowest bound protein concentration	0.04 µM
Nc1ccc(C(=O)O)cc1	BEST1, with wild-type BEST1 (Homo sapiens, UniProt O76090, D302A)	ion current, whole-cell patch clamp	HEK293 co-expressing mutant and wild-type	concentration not given, voltage 20 mV	–	current density	4.73 pA/pF and 1.74 pA/pF and 3.56 pA/pF and 3.65 pA/pF and 3.71 pA/pF and 1.55 pA/pF
CCOC(=O)C1=CCCC[C@H]1S(=O)(=O)Nc1ccc(F)cc1Cl	TLR4 (Homo sapiens, UniProt O00206)	antagonist, ELISA	–	1 µg/mL, added: LPS	reference: DMSO control, lower means stronger antagonism	OD450 in LPS binding ELISA	0.464 a.u. and 0.43 a.u. and 0.453 a.u. and 0.441 a.u.
O=c1cc(CO)occ1[O-].[Cl-].[W+4].c1cc[cH-]c1.c1cc[cH-]c1	ALB	fluorescence quenching	–	303 K	–	Stern-Volmer quenching constant	15700 L/mol
COc1cccc2c(Nc3ccc4[nH]c(C(=O)N/N=C/c5ccc(SC)cc5)cc4c3)cc(C)nc12	RXRA (Homo sapiens, UniProt P19793)	reporter gene, Gal4 hybrid reporter	–	3 µM	reference: vehicle	activation	0.98 fold
NCCS(=O)(=O)O	SLC6A6 Y138A	binding, microscale thermophoresis	–	500 µM, room temperature, added: 50 nM labelled protein	higher = more binding	normalised MST signal	0.00234
COc1cc(-c2[o+]c3cc(O)cc(O)c3cc2O[C@@H]2O[C@H](CO)[C@@H](O)[C@H](O)[C@H]2O)ccc1O	ALB	binding, fluorescence quenching	–	40 °C	–	Gibbs free energy	-5.83 kcal/mol
O=C(O)CCCOc1cccc(CNC(=O)C#Cc2cn(Cc3ccc(C(=O)O)cc3)c(=O)[nH]c2=O)c1	Collagenase 3 (MMP13, Homo sapiens, UniProt P45452)	protease activity, FRET	–	–	–	log IC50	-8.24 ± 0.153
Cc1cc(-c2ccnc3[nH]cc(F)c23)cc(F)c1[C@@]1(O)[C@H](C)CN(C(=O)CN)C[C@@H]1C	JAK1 (Homo sapiens, UniProt P23458)	ATP/ADP probe binding, KiNativ	HEK293T lysate	10 µM, Lys1 peptide domain 2	–	probe labelling inhibition	60.5%
CC(C)=CCC/C(C)=C/CC/C(C)=C/CO	uncharacterized protein	binding, competitor, fluorescence displacement	–	20 µM, pH 7.4, added: 1-NPN 20 µM	reference: 1-NPN alone	relative fluorescence	50.6%
Nc1ncnc2c1ncn2[C@@H]1O[C@H](CO[P@](=O)(O)O[P@](=O)(O)O[P@@](=O)(O)S)[C@@H](O)[C@H]1O	GUK1 (Homo sapiens, UniProt Q16774)	ITC	–	molar ratio 1.11	–	ΔH	-0.99 kcal/mol
C#Cc1c(F)ccc2cc(O)cc(-c3ncc4c(N5CC6CCC(C5)N6)nc(OC[C@@]56CCCN5C[C@H](F)C6)nc4c3F)c12	GTPase KRas, GDP-bound (KRAS, Homo sapiens, UniProt P01116, G12V)	SPR	–	–	–	dissociation rate constant koff	0.00136 ± 0.0016 s⁻¹
CCc1cnn2c(NCc3ccc[n+]([O-])c3)cc(N3CCCC[C@H]3CCO)nc12	BRD4 (Homo sapiens, UniProt O60885)	19F NMR, measured: tyrosine 65	–	47 µM	reference: free protein	chemical shift change	0.043 ppm
c1coc(-c2n[nH]cc2-c2ccnc3ccccc23)c1	SNF1	kinase binding, MIB/MS competition	Candida albicans lysate	10 µM	reference: DMSO, negative = stronger binding	log2 fold change	-0.11

Compound	target	test	test system	conditions	how to read	endpoint	result
Cc1cc(C(=O)NC[C@@H](N)C(=O)O)sc1-c1ccccc1Br	Glutamate receptor ionotropic, NMDA 1, with GluN2D (Grin1, Rattus norvegicus, UniProt P35439)	–	–	added: glutamate 300 µM	–	Hill slope	1.24
COC(=O)c1cc(C(C)=NNc2nc(-c3ccc4c(c3)OCCCO4)cs2)ccc1O	PTPN1	enzyme activity, inhibitor	–	0.1 µM	–	Vmax	7140 ΔRFU/min
O=[N+]([O-])c1cc(C(F)(F)F)ccc1NCc1ccco1	Endothelial PAS domain-containing protein 1, PAS-B domain (EPAS1, Homo sapiens, UniProt Q99814, N288A)	ZZ-exchange NMR	–	25 °C	–	koff	3.37 ± 0.17 s⁻¹
CCCCCCCCCCCCCCCCCCc1ccc(O)cc1	ALB	fluorescence quenching	–	concentration not given, 37 °C	–	number of binding sites	0.91
CC[C@H](C)[C@H](NC(=O)[C@H](CCCNC(=N)N)NC(=O)[C@H](Cc1ccc(O)cc1)NC(=O)[C@@H]1CSCc2cc3cc(c2)CSC[C@H](NC(=O)[C@@H]2CCCN2C(=O)[C@H](CO)NC(=O)[C@@H]2CCCN2C(=O)[C@@H](NC(=O)[C@H](CCSC)NC(C)=O)[C@@H](C)O)C(=O)N[C@@H]([C@@H](C)O)C(=O)N[C@@H](CC(C)C)C(=O)N[C@@H](Cc2ccccc2)C(=O)N[C@@H](CSC3)C(=O)N1)C(=O)N[C@@H](Cc1ccc(O)cc1)C(=O)NCC(=O)N[C@@H](CO)C(=O)NCC(=O)N[C@@H](CO)C(=O)NCC(=O)N[C@@H](CO)C(=O)N[C@@H](CC(=O)O)C(=O)N[C@@H](Cc1ccc(O)cc1)C(=O)N[C@@H](CCCCN)C(=O)N[C@@H](CC(=O)O)C(=O)N[C@@H](CC(=O)O)C(=O)N[C@@H](CC(=O)O)C(=O)N[C@@H](CC(=O)O)C(=O)N[C@@H](CCCCN)C(=O)N[C@@H](CCCCN=[N+]=[N-])C(N)=O	Fibroblast growth factor receptor 3, extracellular domain (FGFR3, Homo sapiens, UniProt P22607)	binding, biolayer interferometry	–	concentration not given	–	BLI response	0.04 RU
N[C@@H](Cc1ccc(O)cc1)C(=O)Nc1ccc2ccccc2c1	Puromycin-sensitive aminopeptidase (Rattus norvegicus, UniProt F1M9V7)	substrate	–	–	–	Km	9 µM
Nc1nc2c(ncn2[C@@H]2O[C@H](COP(=O)(O)O)[C@@H](O)[C@H]2O)c(=O)[nH]1	GUK1 (Homo sapiens, UniProt Q16774, S37P)	enzyme activity, NADH-coupled	–	62.5 µM	–	reaction rate	0.389 s⁻¹ and 1.44 s⁻¹ and 0.447 s⁻¹
CC[C@@H](C)[C@@H](NC(=O)[C@@H](Cc1ccc(O)cc1)NC(=O)[C@H]1CCCN1C(=O)[C@@H](CCCNC(=N)N)NC(=O)[C@H](N)Cc1c[nH]cn1)C(=O)N[C@H](C)C(=O)N[C@H](Cc1c[nH]cn1)C(=O)N[C@H](CCCNC(=N)N)C(=O)N[C@@H](C(=O)N[C@H](Cc1ccc(O)cc1)C(=O)N[C@H](CO)C(=O)N[C@H](Cc1ccccc1)C(N)=O)C(C)C	Transferrin receptor protein 1 (Tfrc, Mus musculus, UniProt Q62351)	flow cytometry	DC2.4	24 h, pH 7.4, unit not given	reference: 0 h	surface TFRC expression	0.661
O=[N+]([O-])c1ccc(OP(=O)(O)O)cc1	PTPN1	substrate	–	–	–	Km	580 µM
CCN(CCO)CCCC(C)Nc1ccnc2cc(Cl)ccc12 (stereo not shown)	SCN5A (Homo sapiens, UniProt Q14524)	sodium current, whole-cell patch clamp	–	10 µM, without ATX-II	–	activation slope factor	3.56 mV/e-fold and 1.27 mV/e-fold and 2.17 mV/e-fold
O=C(O)c1ccc(Nc2ncc3c(n2)-c2ccc(Cl)cc2C(c2c(F)cccc2F)=NC3)cc1	human DAPK1(h)	kinase activity	–	1 µM	–	remaining activity	114%
COc1ccc(-c2cc(=O)c3c(O)c(OC)c(O)c(OC)c3o2)cc1	O-methyltransferase (Citrus reticulata)	C7 O-methylation, substrate	–	added: S-adenosylmethionine	–	Km	33 ± 2.66 µM
[H]/N=C(/N)NCC(=O)O	SLC6A6 Y138A	binding, microscale thermophoresis	–	250 µM, room temperature, added: 50 nM labelled protein	higher = more binding	normalised MST signal	-0.0168
CCCCCCCCCCCCCCCCC	uncharacterized protein	binding, competitor, fluorescence displacement	–	20 µM, pH 7.4, added: 1-NPN 20 µM	reference: 1-NPN alone	relative fluorescence	82.8%
O=c1nc(SCc2cc(F)cc(C(F)(F)F)c2)nc(SCc2ccc3sccc3c2)[nH]1	TOP2A	DNA cleavage	–	31.25 µM, replicate 1	–	linear DNA	1.18%
CC[C@@H]1[C@H](F)C(=O)N[C@@H]1COc1nccc2cc(C(N)=O)c(OC)cc12	SNRK	ATP-site probe binding, ActivX profiling	THP-1 cell lysate	0.2 mM, Lys1 site	–	inhibition	8.5%
Nc1nn(-c2ccccc2)nc1C(=O)O	ADORA2A (Homo sapiens, UniProt P29274)	binding, radioligand competition	–	10 µM, added: [3H]ZM241385	–	displacement	5 ± 4%
CC(=O)N[C@H](C(=O)N1C[C@H](O)C[C@H]1C(=O)NCc1ccc(-c2scnc2C)cc1)C(C)(C)SCCCCCCNC(=O)C[C@@H]1N=C(c2ccc(Cl)cc2)c2c(sc(C)c2C)-n2c(C)nnc21	von Hippel-Lindau disease tumor suppressor, with elongin B/C (VHL, Homo sapiens, UniProt P40337)	ITC	–	25 °C, binary	–	−TΔS	-2.2 ± 0.5 kcal/mol
CCCC[C@@H]1NC(=O)[C@H]([C@@H](C)CC)NC(=O)[C@H](Cc2ccc(O)cc2)NC(=O)[C@H](CC(C)C)NC(=O)[C@@H]2CCCN2C(=O)[C@@H](NC(=O)[C@H](CCCNC(=N)N)NC(=O)[C@H](CCCNC(=N)N)NC(C)=O)CSSC[C@@H](C(=O)N[C@@H](CCCNC(=N)N)C(=O)N[C@@H](CCCNC(=N)N)C(N)=O)NC(=O)[C@H](C(C)C)NC(=O)[C@@H]2CCCN2C(=O)[C@H](CC(=O)O)NC(=O)[C@H](Cc2ccc(O)cc2)NC1=O	KRAS G12D GDP-bound	affinity selection mass spectrometry	–	mixture library 2, added: protein titration up to 5 µM	lower is stronger binding	lowest bound protein concentration	1.25 µM
C[C@@H](c1ccc(-n2cnc3c(N)ncnc32)cc1)N1CCc2nn(C)c(Cc3ccccc3)c2C1=O	Ribosomal protein S6 kinase alpha-6, C-terminal kinase domain (RPS6KA6, Homo sapiens, UniProt Q9UK32)	KINOMEscan	–	0.1 µM	reference: DMSO control	remaining binding	79%
CC(C)OCCn1c(=S)[nH]c(=O)c2[nH]ccc21	Myeloperoxidase (MPO, Homo sapiens, UniProt P05164)	H2O2 consumption, inhibitor, H2O2 electrode	–	10 µM, 0.2 s	–	H2O2 concentration	-0.719 µM
CCCCCCCCOC(C)=O	uncharacterized protein	binding, competitor, fluorescence displacement	–	20 µM, pH 7.4, added: 1-NPN 20 µM	reference: 1-NPN alone	relative fluorescence	43.1%
N[C@H](CNC(=O)c1cc(Br)c(-c2ccccc2F)s1)C(=O)O	Glutamate receptor ionotropic, NMDA 1, with GluN2C (Grin1, Rattus norvegicus, UniProt P35439, V689I)	receptor activation	rat	added: glutamate 300 µM	–	log EC50	-1.88 µM
